Results from different studies.
Compare with care: the assays were run in different laboratories. ± marks the error that the study gave. No end group written: not given here. *: point of attachment.
FGFR3 isoform IIIc: FGFR3 isoform IIIc (unknown, UniProt Q61851)
UniProt Q61851, sequence (whole entry, looked up): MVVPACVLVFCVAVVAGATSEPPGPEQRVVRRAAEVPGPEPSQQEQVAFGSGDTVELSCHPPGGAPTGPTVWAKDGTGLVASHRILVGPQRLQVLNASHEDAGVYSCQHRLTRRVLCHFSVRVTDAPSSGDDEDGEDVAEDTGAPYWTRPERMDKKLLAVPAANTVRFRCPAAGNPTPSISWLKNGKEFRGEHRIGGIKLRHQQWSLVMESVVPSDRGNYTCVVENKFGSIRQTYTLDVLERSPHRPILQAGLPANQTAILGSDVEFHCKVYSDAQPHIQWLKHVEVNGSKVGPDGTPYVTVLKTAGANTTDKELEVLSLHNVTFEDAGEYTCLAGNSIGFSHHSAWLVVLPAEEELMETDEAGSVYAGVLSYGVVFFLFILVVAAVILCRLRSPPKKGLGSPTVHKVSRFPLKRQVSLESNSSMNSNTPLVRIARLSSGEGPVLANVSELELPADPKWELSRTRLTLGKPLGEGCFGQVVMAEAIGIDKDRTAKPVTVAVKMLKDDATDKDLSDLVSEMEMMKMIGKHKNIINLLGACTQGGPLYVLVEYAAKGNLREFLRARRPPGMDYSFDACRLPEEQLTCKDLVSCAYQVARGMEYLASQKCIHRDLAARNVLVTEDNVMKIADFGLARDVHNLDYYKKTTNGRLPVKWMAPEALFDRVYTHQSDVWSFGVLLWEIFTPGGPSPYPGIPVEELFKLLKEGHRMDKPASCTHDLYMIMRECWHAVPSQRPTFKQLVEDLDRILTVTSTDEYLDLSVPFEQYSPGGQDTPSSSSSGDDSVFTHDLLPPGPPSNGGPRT
acpP C12-acylated: acpP C12-acylated 1-78, C12 acyl on 4'-phosphopantetheine (Escherichia coli, UniProt P0A6A8)
UniProt P0A6A8, sequence (whole entry, looked up): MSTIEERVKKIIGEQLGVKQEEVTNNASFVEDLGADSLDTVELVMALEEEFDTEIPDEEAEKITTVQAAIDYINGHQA
Rbpj: Rbpj 53-474 (Mus musculus, UniProt P31266)
UniProt P31266, sequence (whole entry, looked up): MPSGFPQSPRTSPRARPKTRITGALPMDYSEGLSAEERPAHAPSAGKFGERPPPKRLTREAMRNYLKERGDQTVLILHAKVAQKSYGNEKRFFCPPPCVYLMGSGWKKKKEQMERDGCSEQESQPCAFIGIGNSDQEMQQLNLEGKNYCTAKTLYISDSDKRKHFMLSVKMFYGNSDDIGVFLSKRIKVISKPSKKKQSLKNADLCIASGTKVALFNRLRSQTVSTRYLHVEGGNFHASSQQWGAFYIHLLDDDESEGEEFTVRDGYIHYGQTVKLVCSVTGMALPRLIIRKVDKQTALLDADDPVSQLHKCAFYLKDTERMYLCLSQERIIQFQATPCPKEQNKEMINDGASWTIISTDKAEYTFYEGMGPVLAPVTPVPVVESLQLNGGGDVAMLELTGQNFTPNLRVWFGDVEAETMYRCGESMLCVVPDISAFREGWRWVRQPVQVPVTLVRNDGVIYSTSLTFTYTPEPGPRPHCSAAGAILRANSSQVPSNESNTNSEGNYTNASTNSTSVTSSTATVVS
B1: PPP1R11 1-64 (Homo sapiens, UniProt O60927); chain MAEAGAGLSETVTETTVTVTTEPENRSLTIKLRKRKPEKKVEWTSDTVDNEHMGRRSSKCCCIY
B2: UGT1A9 (Homo sapiens, UniProt O60656); chain GKLLVVPMDGSHWFTMRSVVEKLILRGHEVVVVMPEVSWQLGRSLNCTVKTYSTSYTLEDLDREFKAFAHAQWKAQVRSIYSLLMGSYNDIFDLFFSNCRSLFKDKKLVEYLKESSFDAVFLDPFDNCGLIVAKYFSLPSVVFARGILCHYLEEGAQCPAPLSYVPRILLGFSDAMTFKERVRNHIMHLEEHLLCHRFFKNALEIASEILQTPVTEYDLYSHTSIWLLRTDFVLDYPKPVMPNMIFIGGINCHQGKPLPMEFEAYINASGEHGIVVFSLGSMVSEIPEKKAMAIADALGKIPQTVLWRYTGTRPSNLANNTILVKWLPQNDLLGHPMTRAFITHAGSHGVYESICNGVPMVMMPLFGDQMDNAKRMETKGAGVTLNVLEMTSEDLENALKAVINDKSYKENIMRLSSLHKDRPVEPLDLAVFWVEFVMRHKGAPHLRPAAHDLTWYQYHSLDVIGFLLAVVLTVAFITFKCCAYGYRKCLGKKGRVKKAHKSKTH
B3: TIMP3 24-144 (Homo sapiens, UniProt P35625); sequence looked up; chain CTCSPSHPQDAFCNSDIVIRAKVVGKKLVKEGPFGTLVYTIKQMKMYRGFTKMPHVQYIHTEASESLCGLKLEVNKYQYLLTGRVYDGKMYTGLCNFVERWDQLTLSQRKGLNYRYHLGCN
B4: FGF6 (Homo sapiens, UniProt P10767); chain SPAGTRANNTLLDSRGWGTLLSRSRAGLAGEIAGVNWESGYLVGIKRQRRLYCNVGIGFHLQVLPDGRISGTHEENPYSLLEISTVERGVVSLFGVRSALFVAMNSKGRLYATPSFQEECKFRETLLPNNYNAYESDLYQGTYIALSKYGRVKRGSKVSPIMTVTHFLPRI
B5: Tcur_2987 W263F (Thermomonospora curvata, UniProt D1A807); chain ACSEERAAGARPSATQTTGTATEPFHGPHQAGIATPPQAHAVFLGLDLRKGTGRKELGRLMRLLTDDARRLTQGRPALADPEPDLAPLPSRLTFTFGFGPGLFKAAGLEKQRPEGLRPLPPFKVDRLEDRWSGGDLLVQICCDDPITLAHALRMTVKDARAFTRVRWVQRGFRRSPGVQSSGATQRNLMGQLDGTVNPVPGTADFDQAVWVQDGPEWLRGGTTLVLRRIRMELEKFDEADPAGKEFAVGRRLTSGAPLTGRHEHDEPDFDAVDSAGFPVIAENAHIRLAHVDSPRLRMLRRPYNYDEGLTADGRSDAGLLFAAYQADIDRQFIPVQRRLDEGGDLLNLWTTPIGSAVFAIPPGCDENGWIGQGLLG
B6: erenumab; V domains shown; sequence looked up; VH QVQLVESGGGVVQPGRSLRLSCAASGFTFSSFGMHWVRQAPGKGLEWVAVISFDGSIKYSVDSVKGRFTISRDNSKNTLFLQMNSLRAEDTAVYYCARDRLNYYDSSGYYHYKYYGMAVWGQGTTVTVSS; VL QSVLTQPPSVSAAPGQKVTISCSGSSSNIGNNYVSWYQQLPGTAPKLLIYDNNKRPSGIPDRFSGSKSGTSTTLGITGLQTGDEADYYCGTWDSRLSAVVFGGGTKLTVL
B7: RGS16 (Homo sapiens, UniProt O15492); sequence looked up; chain MCRTLAAFPTTCLERAKEFKTRLGIFLHKSELGCDTGSTGKFEWGSKHSKENRNFSEDVLGWRESFDLLLSSKNGVAAFHAFLKTEFSEENLEFWLACEEFKKIRSATKLASRAHQIFEEFICSEAPKEVNIDHETHELTRMNLQTATATCFDAAQGKTRTLMEKDSYPRFLKSPAYRDLAAQASAASATLSSCSLDEPSHT
B8: L3MBTL3 1-197 (Homo sapiens, UniProt Q96JM7-2); sequence looked up; chain MTESASSTSGQEFDVFSVMDWKDGVGTLPGSDLKFRVNEFGALEVITDENEMENVKKATATTTWMVPTAQEVFSEKTGMPFRLKDPVKVEGLQFCENCCQYGNVDECLSGGNYCSQNCARHIKDKDQKEERDVEEDNEEEDPKCSRKKKPKLSLKADTKEDGEERDDEMENKQDVRILRGSQRARRKRRGDSAVLKQ
B9: U2AF1 (Homo sapiens, UniProt Q01081); chain MAEYLASIFGTEKDKVNCSFYFKIGACRHGDRCSRLHNKPTFSQTIALLNIYRNPQNSSQSADGLRCAVSDVEMQEHYDEFFEEVFTEMEEKYGEVEEMNVCDNLGDHLVGNVYVKFRREEDAEKAVIDLNNRWFNGQPIHAELSPVTDFREACCRQYEMGECTRGGFCNFMHLKPISRELRRELYGRRRKKHRSRSRSRERRSRSRDRGRGGGGGGGGGGGGRERDRRRSRDRERSGRF
UniProt Q9H2T7, sequence (whole entry, looked up): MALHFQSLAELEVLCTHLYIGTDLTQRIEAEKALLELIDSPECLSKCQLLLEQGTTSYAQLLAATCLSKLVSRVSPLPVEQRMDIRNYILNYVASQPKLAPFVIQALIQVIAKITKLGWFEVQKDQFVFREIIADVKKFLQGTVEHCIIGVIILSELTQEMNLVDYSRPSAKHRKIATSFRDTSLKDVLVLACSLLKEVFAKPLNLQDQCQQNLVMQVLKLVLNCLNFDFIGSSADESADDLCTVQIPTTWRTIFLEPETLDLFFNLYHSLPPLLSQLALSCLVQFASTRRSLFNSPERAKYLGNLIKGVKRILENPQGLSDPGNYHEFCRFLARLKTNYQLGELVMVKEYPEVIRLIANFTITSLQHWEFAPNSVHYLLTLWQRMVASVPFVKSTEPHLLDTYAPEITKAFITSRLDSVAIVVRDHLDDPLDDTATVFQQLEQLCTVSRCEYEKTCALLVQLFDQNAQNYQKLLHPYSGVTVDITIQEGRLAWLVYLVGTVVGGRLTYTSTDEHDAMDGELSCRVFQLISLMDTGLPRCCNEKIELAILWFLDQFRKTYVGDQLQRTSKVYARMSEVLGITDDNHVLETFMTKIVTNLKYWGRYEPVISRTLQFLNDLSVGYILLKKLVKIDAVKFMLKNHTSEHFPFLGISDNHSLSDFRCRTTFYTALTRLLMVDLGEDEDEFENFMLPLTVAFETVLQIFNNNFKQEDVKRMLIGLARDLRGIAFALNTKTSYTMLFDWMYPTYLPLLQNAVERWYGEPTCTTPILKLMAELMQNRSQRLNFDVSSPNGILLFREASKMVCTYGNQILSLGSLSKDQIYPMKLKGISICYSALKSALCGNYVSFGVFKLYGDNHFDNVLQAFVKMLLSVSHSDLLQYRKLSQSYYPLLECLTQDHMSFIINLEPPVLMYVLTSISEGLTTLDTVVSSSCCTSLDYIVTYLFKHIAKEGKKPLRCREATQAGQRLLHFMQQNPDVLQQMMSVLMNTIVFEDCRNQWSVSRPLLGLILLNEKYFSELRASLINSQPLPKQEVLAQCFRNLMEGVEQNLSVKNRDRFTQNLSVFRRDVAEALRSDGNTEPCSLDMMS
UniProt P55075, sequence (whole entry, looked up): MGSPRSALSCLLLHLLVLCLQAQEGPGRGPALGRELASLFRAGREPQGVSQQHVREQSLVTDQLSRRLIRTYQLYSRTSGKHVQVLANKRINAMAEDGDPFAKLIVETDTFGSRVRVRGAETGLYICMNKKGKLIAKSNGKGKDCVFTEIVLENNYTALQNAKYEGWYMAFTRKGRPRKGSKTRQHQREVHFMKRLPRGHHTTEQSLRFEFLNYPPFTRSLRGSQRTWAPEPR
UniProt Q8PTU1, sequence (whole entry, looked up): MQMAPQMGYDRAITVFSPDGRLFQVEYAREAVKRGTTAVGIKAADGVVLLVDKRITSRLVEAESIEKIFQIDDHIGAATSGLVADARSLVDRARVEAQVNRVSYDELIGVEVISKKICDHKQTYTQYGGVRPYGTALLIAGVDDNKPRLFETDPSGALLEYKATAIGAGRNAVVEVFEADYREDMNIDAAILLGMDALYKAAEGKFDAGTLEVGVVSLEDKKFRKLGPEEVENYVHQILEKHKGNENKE
UniProt P22091, sequence (whole entry, looked up): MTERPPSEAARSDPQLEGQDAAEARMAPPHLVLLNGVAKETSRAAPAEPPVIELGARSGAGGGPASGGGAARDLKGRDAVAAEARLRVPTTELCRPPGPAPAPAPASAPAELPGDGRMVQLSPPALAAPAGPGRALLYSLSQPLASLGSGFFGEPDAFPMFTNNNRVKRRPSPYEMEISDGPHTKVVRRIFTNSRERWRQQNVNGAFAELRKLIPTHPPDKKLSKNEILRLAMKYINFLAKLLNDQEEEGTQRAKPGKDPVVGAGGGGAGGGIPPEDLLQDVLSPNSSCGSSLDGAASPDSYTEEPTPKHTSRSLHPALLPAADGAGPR
UniProt O54972, sequence (whole entry, looked up): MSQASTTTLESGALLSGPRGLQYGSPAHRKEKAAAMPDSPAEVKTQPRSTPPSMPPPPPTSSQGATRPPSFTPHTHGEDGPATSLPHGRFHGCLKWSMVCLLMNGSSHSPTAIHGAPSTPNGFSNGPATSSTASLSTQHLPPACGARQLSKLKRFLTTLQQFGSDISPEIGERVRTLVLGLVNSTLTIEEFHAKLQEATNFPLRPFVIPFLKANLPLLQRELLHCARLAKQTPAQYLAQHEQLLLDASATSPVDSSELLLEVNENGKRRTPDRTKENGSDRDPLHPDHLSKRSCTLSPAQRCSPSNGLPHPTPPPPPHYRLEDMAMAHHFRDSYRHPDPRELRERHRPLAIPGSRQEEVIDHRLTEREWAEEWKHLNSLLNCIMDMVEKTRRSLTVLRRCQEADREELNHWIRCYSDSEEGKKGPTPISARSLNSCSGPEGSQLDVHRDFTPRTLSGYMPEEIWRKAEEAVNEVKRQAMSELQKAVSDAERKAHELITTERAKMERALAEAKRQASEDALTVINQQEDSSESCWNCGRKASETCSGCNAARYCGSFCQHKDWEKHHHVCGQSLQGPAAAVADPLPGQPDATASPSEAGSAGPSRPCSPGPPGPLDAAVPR
UniProt P05230, sequence (whole entry, looked up): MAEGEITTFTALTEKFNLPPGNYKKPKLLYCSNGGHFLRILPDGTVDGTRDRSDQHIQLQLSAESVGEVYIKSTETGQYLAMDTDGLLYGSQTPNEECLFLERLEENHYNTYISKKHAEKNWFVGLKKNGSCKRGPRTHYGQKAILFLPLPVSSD
UniProt P62139, sequence (whole entry, looked up): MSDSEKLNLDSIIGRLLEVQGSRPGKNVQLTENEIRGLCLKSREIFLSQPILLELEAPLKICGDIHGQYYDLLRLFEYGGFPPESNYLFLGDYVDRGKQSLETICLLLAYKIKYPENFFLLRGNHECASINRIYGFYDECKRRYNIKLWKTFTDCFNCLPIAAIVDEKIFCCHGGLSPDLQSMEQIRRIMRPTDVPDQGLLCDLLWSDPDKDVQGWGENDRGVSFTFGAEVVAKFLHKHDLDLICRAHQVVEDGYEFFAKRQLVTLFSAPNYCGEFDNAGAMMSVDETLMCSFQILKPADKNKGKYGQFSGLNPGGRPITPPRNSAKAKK
UniProt Q12798, sequence (whole entry, looked up): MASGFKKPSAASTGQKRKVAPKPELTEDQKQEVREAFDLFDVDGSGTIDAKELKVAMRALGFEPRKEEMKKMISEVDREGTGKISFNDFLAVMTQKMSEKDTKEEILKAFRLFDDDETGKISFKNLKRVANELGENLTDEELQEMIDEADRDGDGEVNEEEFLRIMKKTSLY

Molecule	target or system	test	system	conditions	how to read	endpoint	result
ths (Pyrococcus horikoshii, UniProt O57762)	LYZ, methyl-labelled (Gallus gallus, UniProt P00698)	NMR thermal unfolding	–	–	baseline: without hsp60, higher = more stable	melting temperature	5 °C
FGF1 (Homo sapiens, UniProt P05230)	FGFR3 isoform IIIc	cell proliferation, MTT	BaF3-FGFR3c	20 nM, 48 h, with: chondroitin sulfate A 4.9 µg/mL	baseline: FGF 1 with heparin, higher = more proliferation	cell proliferation	2%
B1 (PPP1R11 1-64)	PPP1CA (Oryctolagus cuniculus, UniProt P62139)	PP1 activity, inhibitor	–	–	baseline: wild type Inh3	IC50 shift	604 fold
SUMO1 fragment R66E (Arabidopsis thaliana)	SAE2/SAE1a (Arabidopsis thaliana)	SUMO conjugation	–	42 °C	baseline: native AtSUMO1, higher = faster conjugation	SUMO conjugation rate	50%
anti-CTLA-4 IgG1 Fc S267E/L328F (Homo sapiens)	FCGR2B (Homo sapiens, UniProt P31994)	IL-2 luciferase reporter, reporter assay	Jurkat with Raji	8 hr, endogenous FcγRIIB	baseline: parental hIgG1 mAb, higher = more potent	potency	7 fold
TFPI (Homo sapiens, UniProt P10646-1)	F5 B-domain deleted 811-1490 R709Q/R1545Q (UniProt P12259)	thrombin generation inhibition, inhibitor	–	no heparin	–	IC50	6.8 nM
TFPI endogenous, on cells (Homo sapiens, UniProt P10646)	F3/F7 TF-fVIIa complex (Homo sapiens)	factor Xa generation	HUVEC	LPS-treated, endogenous TF, α-cyclodextrin, control	–	maximum factor Xa generated	27.9 nM
SKA3 (Homo sapiens, UniProt Q8IX90)	SKA1/SKA2 (Homo sapiens)	SEC	–	–	–	molecule per partner	1
TIMP2 N-terminal domain S4E/V6R/V18M/I35V/N38Q/S68N/V71N/H97R	MMP2 (Homo sapiens, UniProt P08253)	fluorogenic substrate cleavage, inhibitor, enzyme inhibition assay	–	apparent	–	Ki	224 nM
GLP-2 mature, (R,R)-ACPC at 4, C-terminal amide	GLP2R (Homo sapiens, UniProt O95838)	cAMP, agonist	–	–	baseline: GLP-2, higher = more cAMP	relative cAMP production	57%
ITGAV/ITGB3 mature heterodimer (Homo sapiens)	FBN1 1527-1647 (Homo sapiens, UniProt P35555)	cell spreading	BHK	1 µM	higher = more spread cells	cell spreading	20%
B2 (UGT1A9)	O=c1c(O)c(-c2cccc(O)c2)oc2cc(O)ccc12	steady-state kinetics	–	pH 7.4, 37 °C	–	Vmax/Km	227 µL/min/mg
TFPI (Homo sapiens, UniProt P10646-1)	F3/F7 TF-fVIIa complex (Homo sapiens)	factor Xa generation	EA.hy926	LPS-treated, endogenous TF, α-cyclodextrin, control	–	maximum factor Xa generated	26.5 nM
fabF K65A (Escherichia coli)	acpP C12-acylated	holo-AcpP formation, HPLC	–	10 µM, with: malonyl-CoA	–	condensation rate	1.37 min⁻¹
GPIHBP1 acidic N-terminal region (Homo sapiens)	LPL (Bos taurus, UniProt P11151)	lipase activity	–	10 nM, 37 °C, with: peptide 1 µM	higher = less inhibition	remaining LPL activity	60%
KLLITIHDRKEFAKFEEERARAKW (ITGB3 742-765 (Homo sapiens, UniProt P05106); sequence looked up)	Myom1 IgC2 domains 4-5 C1354S (Mus musculus)	ITC	peptide	pH 6.8, 25 °C, NaCl 50 mM	–	molecule per partner	1.3 ± 0.41
B3 (TIMP3 24-144)	ADAMTS4 213-575 (Homo sapiens, UniProt O75173)	inhibitor, steady-state kinetics	–	18 h, pH 7.5, 37 °C, tight-binding fit	–	Ki	0.1 nM
FGF8b (Homo sapiens)	FGFR3 isoform IIIc	cell proliferation, MTT	BaF3-FGFR3c	20 nM, 48 h, with: heparosan 4.9 µg/mL	baseline: FGF 1 with heparin, higher = more proliferation	cell proliferation	31%
YAGRRKERPTSLNVFP (MAPK8IP3 D-site peptide (Homo sapiens))	Mapk14 N159K/E160S/E163T, pT180, pY182 (Rattus norvegicus, UniProt P70618)	kinase activity, inhibitor, competitive kinase inhibition assay	peptide	with: ATP 1 mM	–	IC50	> 100000 nM
F8 A2 domain (human)	F8 A1 and A3C1C2 dimer, factor VIIIa Y1792T	FXa generation activity loss	–	1.5 nM, 23 °C	higher = faster decay	decay rate	1.06 min⁻¹
[D-Pro7]angiotensin-(1-7)	–	antagonist	male Wistar rat, isolated renal artery	10 µM, 20 min, with: angiotensin-(1-7), phenylephrine 3 × 100 nM	–	maximal vasorelaxation	12 ± 1%

Molecule	target or system	test	system	conditions	how to read	endpoint	result
B4 (FGF6)	FGFR3 isoform IIIc	cell proliferation, MTT	BaF3-FGFR3c	20 nM, 48 h, with: chondroitin sulfate E 4.9 µg/mL	baseline: FGF 1 with heparin, higher = more proliferation	cell proliferation	3%
VAC17 peptide around Thr240, pT240 (Saccharomyces cerevisiae)	DMA1 (Saccharomyces cerevisiae, UniProt P38823)	ThermoFluor	–	with: phospho-Thr240 peptide	higher = more stable	melting temperature	45.6 °C
Cbfa2t3 (Mus musculus, UniProt O54972)	Tal1 (Mus musculus, UniProt P22091)	luciferase reporter	NIH 3T3	with: Mtgr1	higher = stronger repression	repression of reporter	17.6 fold
B5 (Tcur_2987 W263F)	Nc1c(S(=O)(=O)O)cc(Nc2cccc(S(=O)(=O)CCOS(=O)(=O)O)c2)c2c1C(=O)c1ccccc1C2=O	steady-state kinetics	–	pH 3, sigmoidal kinetics, with: H2O2 1 mM	–	K0.5	33 µM
F8 A2 subunit D519V/E665V (Homo sapiens)	F8 A1/A3C1C2 dimer (Homo sapiens)	thrombin generation	FVIII-deficient plasma	0.13 nM	–	peak thrombin	180 nM
FGF8 (Homo sapiens, UniProt P55075)	FGFR3 isoform IIIc	cell proliferation, MTT	BaF3-FGFR3c	20 nM, 48 h, with: heparan sulfate 4.9 µg/mL	baseline: FGF 1 with heparin, higher = more proliferation	cell proliferation	103%
CDC48-A (Methanosarcina mazei)	20S proteasome core particle (Methanosarcina mazei, UniProt Q8PTU1)	BODIPY-casein degradation, activator	–	100 nM CP, with: ATP	baseline: MmCP alone, higher = more degradation	casein degradation	2 fold
B6 (erenumab)	CALCRL/RAMP3 on cells (Homo sapiens)	cAMP production, antagonist	antibody	weak antagonist, with: adrenomedullin	–	pA2	6.01
B7 (RGS16)	GNAI1 R178M/A326S (Homo sapiens, UniProt P63096)	GTPase rate, Transcreener GDP assay	–	250 nM	baseline: basal rate, higher = faster hydrolysis	GAP factor	12 fold
benzalkonium chloride	Saccharomyces cerevisiae	vacuole-vacuole fusion, antagonist	–	with: mastoparan 20 µM	–	concentration for maximal antagonism	10 µg/mL
B8 (L3MBTL3 1-197)	Rbpj	ITC	–	pH 6.5, 25 °C, NaCl 150 mM	–	ΔH	-7.2 kcal/mol
fabF S130A (Escherichia coli)	acpP C12-acylated	holo-AcpP formation, HPLC	–	10 µM, with: malonyl-CoA	–	condensation rate	1.69 min⁻¹
IINFEKL	ERAP1 (Homo sapiens, UniProt Q9NZ08, L733R)	substrate	peptide	pH 8.0, 27 °C, mutant L733R, with: L-AMC, peptide activator 100 µM	–	K1/2 of L-AMC	0.22 ± 0.04 mM
Ac-SQHNRQLLRGALRRWK-NH2 (SFI1 repeat 18, 677-692 (Homo sapiens); N-acetyl; C-terminal amide)	CETN1, phosphothreonine (Homo sapiens, UniProt Q12798)	ITC	peptide	one-site model, with: CaCl2 1 mM	–	molecule per partner	0.65
FXR1 (Homo sapiens, UniProt P51114)	GFP-GAPDH/TDRD3 fusion (Homo sapiens)	FXR1 enrichment, co-IP	–	–	baseline: single domain, higher = stronger binding	affinity increase	20 fold
MMP2 fragment R252A (Homo sapiens)	COL1A1/COL1A2 denatured, gelatin (Homo sapiens)	DQ-gelatin fluorescence	–	10 nM, 25 °C	higher = faster hydrolysis	hydrolysis rate	0.269 RFU/s
pasireotide, D-Trp, Tyr(4-Bzl)	SSTR1 M141Q (Homo sapiens, UniProt P30872)	cAMP inhibition, FRET Epac sensor	HEK 293T	–	baseline: wild-type SSTR1, higher = greater potency	potency of cAMP inhibition	> 10 fold
RANBP17 (Homo sapiens, UniProt Q9H2T7)	TCF3 (Homo sapiens, UniProt P15923)	luciferase reporter	HeLa	–	baseline: E12/MyoD alone, higher = more activity	reporter activity	2.7 fold
B9 (U2AF1)	U2AF2 (Homo sapiens, UniProt P26368)	two-hybrid	yeast EGY48	30 °C	baseline: empty prey vector, higher = stronger interaction	two-hybrid β-galactosidase activity	124 fold over background
GSS(Octanoyl)FLSPEHQRVQQRKESKKPPAKLQPR (ghrelin; Octanoyl = CCCCCCCC(=O)*; sequence looked up)	Calu-3 monolayer	–	peptide, basal side	1 mg/mL, 3 h, apical to basal	–	permeated amount	0%
MENVKKAAATTTWMVPTAQ (L3MBTL3 52-70 T59A (Homo sapiens, UniProt Q96JM7-2); sequence looked up)	Rbpj	ITC	peptide	pH 6.5, 25 °C, NaCl 150 mM	–	ΔH	-9.9 kcal/mol

Excerpt of the above:
Molecule	target or system	test	system	conditions	how to read	endpoint	result
benzalkonium chloride	Saccharomyces cerevisiae	vacuole-vacuole fusion, antagonist	–	with: mastoparan 20 µM	–	concentration for maximal antagonism	10 µg/mL
B8 (L3MBTL3 1-197)	Rbpj	ITC	–	pH 6.5, 25 °C, NaCl 150 mM	–	ΔH	-7.2 kcal/mol
fabF S130A (Escherichia coli)	acpP C12-acylated	holo-AcpP formation, HPLC	–	10 µM, with: malonyl-CoA	–	condensation rate	1.69 min⁻¹
